Assay results of several laboratories.
Parts stem from different laboratories: compare values within a part only.

Study 1
Target: Sal-like protein 4, full length isoform A (SALL4, Homo sapiens, UniProt Q9UJQ4, residues 1-1053)
Chain of UniProt Q9UJQ4 (whole entry, looked up): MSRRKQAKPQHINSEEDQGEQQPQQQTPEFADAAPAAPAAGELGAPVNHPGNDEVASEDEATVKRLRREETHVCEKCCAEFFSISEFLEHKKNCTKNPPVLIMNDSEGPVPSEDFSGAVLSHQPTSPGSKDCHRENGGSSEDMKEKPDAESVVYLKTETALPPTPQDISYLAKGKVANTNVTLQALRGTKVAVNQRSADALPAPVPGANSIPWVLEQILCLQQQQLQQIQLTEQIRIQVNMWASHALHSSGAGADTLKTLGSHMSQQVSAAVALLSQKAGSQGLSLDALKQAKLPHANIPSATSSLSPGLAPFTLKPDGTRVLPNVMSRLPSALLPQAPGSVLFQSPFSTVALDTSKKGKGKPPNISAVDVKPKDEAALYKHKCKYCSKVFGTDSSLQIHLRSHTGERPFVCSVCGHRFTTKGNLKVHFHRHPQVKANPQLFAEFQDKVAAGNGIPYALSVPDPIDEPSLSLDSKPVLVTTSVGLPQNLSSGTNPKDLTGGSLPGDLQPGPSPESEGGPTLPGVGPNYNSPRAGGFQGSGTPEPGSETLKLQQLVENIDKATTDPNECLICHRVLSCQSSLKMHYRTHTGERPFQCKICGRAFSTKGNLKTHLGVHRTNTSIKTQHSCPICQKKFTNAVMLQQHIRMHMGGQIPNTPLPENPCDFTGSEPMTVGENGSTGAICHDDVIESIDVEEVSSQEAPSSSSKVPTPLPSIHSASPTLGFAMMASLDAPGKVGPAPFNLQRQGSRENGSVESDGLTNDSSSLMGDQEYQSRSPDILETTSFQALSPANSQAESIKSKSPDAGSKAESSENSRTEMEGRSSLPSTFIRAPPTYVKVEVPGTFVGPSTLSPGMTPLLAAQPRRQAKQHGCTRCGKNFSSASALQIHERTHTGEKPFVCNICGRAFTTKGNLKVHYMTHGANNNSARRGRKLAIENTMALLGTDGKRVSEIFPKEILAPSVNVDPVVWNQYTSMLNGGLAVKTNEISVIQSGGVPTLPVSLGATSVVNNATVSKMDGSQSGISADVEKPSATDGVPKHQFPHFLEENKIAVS
Technique: universal PBM
Form: double-stranded DNA, one strand shown
Sample: in vitro
Concentration: 600 nM
Setting: 8-mer, flanks averaged, mean of replicates
Reading: higher = stronger binding
| Strand | E-score |
| --- | --- |
| AAGACGGT | -0.0834 |
| TGCTTCAA | 0.109 |
| GACTCTCA | -0.0999 |
| ATCAGATG | 0.00272 |
| CGCCGCAA | -0.125 |
| CAACTAGC | -0.0716 |
| AGGCAATG | -0.039 |
| AGGAGAAC | -0.087 |
| ACGTGAAG | 0.0651 |
| CGTGTCAG | -0.0895 |
| CGACGCTC | -0.0605 |
| ACGCTCTC | -0.204 |
| ATGCTTTC | 0.169 |
| TCTCAAAA | 0.279 |
| ATGGAGAA | 0.123 |
| CACGTGAG | -0.147 |
| ATCACCAT | 0.0956 |
| CCTCTTAG | 0.0371 |
| CATGTCAC | 0.0713 |
| CAAAAGGA | 0.182 |
| CGGTATGC | -0.187 |
| CCGAGAAC | -0.14 |
| AGCCTTGC | -0.305 |
| CGAACGAG | -0.052 |
| ACTAGAAT | 0.225 |

Study 2
Target: RNA binding protein fox-1 homolog 2, RRM domain, GST-SBP tag (RBFOX2, Homo sapiens, UniProt O43251-10, residues 100-194)
Technique: RNA Bind-n-Seq
Form: RNA
Sample: in vitro
Concentration: 365 nM
Setting: natural RNA segment, single round, ends assumed
Baseline: no-protein control
Reading: higher = stronger binding
Shared flanks, not repeated: GGGAGUUCUACAGUCCGACGAUC … UGGAAUUCUCGGGUGCCAA
Construct (chain): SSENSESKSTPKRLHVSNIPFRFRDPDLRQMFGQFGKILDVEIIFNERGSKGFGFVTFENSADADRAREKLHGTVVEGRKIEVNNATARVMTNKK
| Strand | RBNS enrichment (R) |
| --- | --- |
| CCAGUCGAUCACAGCCAUUACCAAUAAGUUCAACCUCAAAGUACUUCAUAAAAAUCUGACCAAUCUACUAAAAUACUGCAGGCGUGAAAGGUUCUGUUGGAGCUGAAUGU | 0.488 |
| CUGGUCCUAGUCACUGGCCGAGGAUAAGCCCGUCCCUGUCCCACAUUCUAGCCCCACUAUGCGGGGGUGCUGUUGUCCUGCCUGUGUCUCAUCCCCAGCUGCCUAAGCUA | 0.788 |
| CCUUUCCCAGCUUCAGAUCUUGGGGAGAUCCAUCCAAGGGGUUCAGCCCUCUCCUGCCUCCAUGCCUUGGGUCCCUGAAGAGCUUAGAACCCAAAGCUAGGGCCACCCCU | 0.92 |
| GAGCCUCAGCACUGUCUGACUUUGGGAACCAGGGAUCCCACAGAAAUGUUUUGGAGAGCGGGAGGUUUCCCCCAAUCUCCUCCAAGUUCUUCUCCCUCCAACCAGAGUUG | 0.344 |
| ACACUGUGGAAUUUCUUCAAGGGAGCUGCCGGCCGGCGCAGAACCCCCAGGAGCACAGGUCUCUCCGGGCCGCUGUCCUGCGUAACUGUUCUCCAGAGCGCCAGCCAGCC | 0.314 |
| UGGUGGGCAGCAGACUAAAGAGUUAUGUUGGAUAGUUUUAUUUCUGUGGCUGAAAAUAAAAUCUUGUCUAGCACAGUUAAAGUCAUUAAAAAUAAAAAUGACAGCUUUAG | 0.67 |
| GUCCAGACCUGGUCGGGGCCCACUGGAAGCAUCCAGAACAGCACCACCAUCUAGCGGCCGCUCGAGGGAAGCACCCGCCGGUUGGCCGAAGUCCACGAAGCCGCCCUCUG | 0.387 |
| UCUUAGCUUAUUGUGACUGUUUCAGAUCUAGUUUGGGAACAGAUUAGAGGCCAUUGUCUUCUGUCCUGAUCAGGUGGCCUGGCUGUUUCUUUGGAUCCCUCUGUCCCAGA | 0.291 |
| CACAAGCAGACACUGCUGGACUUAGAAGUUUCUAUUUGAGUUCCUUAAACUACAAAACUAAUAUGUAUGUGUACCAAACUGAUUUAAAAUAAAUGUUUAUUAGUCUCUUG | 0.821 |
| GUGUGUGUGGACUGGUUAUAGAUUUAUAACUAUGCAGGGUUAAUUAUCCAAUCUUUUUUUUUUGUAUUUAAAGAUCACAGGUAGAUAGAUGUAAGACAUUUGAUCCCCUG | 0.9 |
| CCAUCUGUCCCACACGCUCCCUGGGGCUCUUAGUUCAGCUGCUGGCACUCGCAGGAUCCUGCAGUGCUGGGCCCAGAGCCCUUGGACAGGCCUCAGGAGUGGUCAGGACC | 0.281 |
| UGCAUGUCCCUGCUUCCAAAGCCUGACCUUCCAAAGCUUGCUUCCUUCCUCCUGGCUGCACAGACACCUCUGCUUGGCCACAGCUUUGCUCUUUGGUCCUCAGGCCACCA | 4.67 |

Study 3
Target: Histone acetyltransferase KAT6A, winged helix 2, GST fusion (KAT6A, Homo sapiens, UniProt Q92794, residues 85-181)
Technique: protein binding microarray
Form: double-stranded DNA, one strand shown
Sample: in vitro
Concentration: not given
Setting: 8-mer, flanks averaged, mean of 2 arrays, mostly near background
Baseline: not given
Reading: higher = stronger binding
Residues (chain): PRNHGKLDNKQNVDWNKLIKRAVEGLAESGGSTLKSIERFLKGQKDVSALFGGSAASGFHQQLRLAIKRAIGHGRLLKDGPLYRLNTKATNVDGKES
| Strand | E-score |
| --- | --- |
| AAACAGTC | -0.216 |
| CCCCTTAG | -0.041 |
| ATATGGAC | -0.157 |
| ATGCAGCG | -0.0456 |
| CAGATATG | -0.103 |
| ATCTTTCA | -0.0903 |
| ATATGTCG | 0.0521 |
| CCAATACG | -0.0615 |
| GTCGTTAA | -0.0569 |
| GACTGGGA | -0.0735 |
| GGGCTGAA | 0.2 |
| CAATTCGC | 0.151 |
| TTCTAGAA | 0.186 |
| CAGCTTCG | 0.0237 |
| CAGCCGAC | -0.0362 |
| TAAAAGGA | 0.0584 |
| CCGGCCAC | 0.28 |
| GCAATTCC | -0.0301 |
| CACTACAA | 0.0327 |
| AGAGTTTC | 0.0218 |
| GAAGAACA | 0.0696 |
| ACCGATAT | -0.0791 |
| ATTCCGAA | 0.101 |
| GGGGAATA | 0.0147 |
| GAAGAGCC | 0.0712 |

Study 4
Target: Fragile X messenger ribonucleoprotein 1, C-terminal low-complexity region (Fmr1, Mus musculus, UniProt P35922)
Technique: RNA Bind-n-Seq
Form: RNA
Sample: in vitro
Concentration: 200 nM
Setting: whole 134-nt RNA, ends assumed
Added: 150 mM KCl
Baseline: input library
Reading: higher = stronger binding
Shared flanks, not repeated: GGGAGUUCUACAGUCCGACGAUC … UGGAAUUCUCGGGUGUCAAGG
| Strand | log2 enrichment |
| --- | --- |
| CACAGACAACACGCACCCACACAGACACAGAGGGAAGGGGUUGGGAUGGGGAUAGGGUGCACAGCAGGGCGGGGUAGGACCCCAGCCCCU | 1.24 |
| GUCCUGUGCUACACAUCGUAUGUACCGAAUCGGGAAAAAAAGGGUGGGAAAAAAAGGGAAAGUAUUAUGUUACGCCGUUCGGAUCUGCAC | -0.194 |
| GUCCUGUGCUACACAUCGUAUGUACCGAAUCGGGGUUUUUGGGGUGGGGUUUUUGGGGAAAGUAUUAUGUUACGCCGUUCGGAUCUGCAC | 0.762 |
| CACAGACAACACGCACCCACACAGACACAGAGGGAAGGGGUUGGGAUGGGGAGAGGGUGCACAGCAGGGCGGGGUAGGACCCCAGCCCCU | 1.2 |
| UCCUGUGCUACACAUCGUAUGUACCGAAUCGGGGAAAAAAGGAAAAAAGGAAAAAAGGGAAAGUAUUAUGUUACGCCGUUCGGAUCUGCA | -0.237 |
| CAAGUCCUGUGCUACACAUCGUAUGUACCGAAUCGGAAAAAGGAGGAAAAAAAGGAAAGUAUUAUGUUACGCCGUUCGGAUCUGCACUUC | -0.631 |
| UGGGAGGUGGAUUUUGUUUAUUUUUUUCGCUCAUUUCCAGGGGUGGGAAUUUUUUUUUAAUAUGUGUCAUGAAUAAAGUUGUUUUUGAAA | 0.25 |
| GUCCUGUGCUACACAUCGUAUGUACCGAAUCGGGCCCCCGGGCCCCCGGGGCCCCCGGAAAGUAUUAUGUUACGCCGUUCGGAUCUGCAC | -1.02 |
| AGUCCUGUGCUACACAUCGUAUGUACCGAAUCAAACCCAAAUUUUUAAAUUUUUAAAAAAGUAUUAUGUUACGCCGUUCGGAUCUGCACU | 0.13 |
| UUGCAGGAGCCGCCGCGCCUCGGCCUAGCAUGUCGGAAGCGGGCGAGGAGCAGCCCAUGGAGACGACGGGCGCCACCGAGAACGGACAUG | -0.0923 |

Excerpt of the above (study 1):
| Strand | E-score |
| --- | --- |
| CGACGCTC | -0.0605 |
| ACGCTCTC | -0.204 |
| ATGCTTTC | 0.169 |
| TCTCAAAA | 0.279 |
| ATGGAGAA | 0.123 |
| CACGTGAG | -0.147 |
| ATCACCAT | 0.0956 |
| CCTCTTAG | 0.0371 |
| CATGTCAC | 0.0713 |
| CAAAAGGA | 0.182 |
